Published values from different studies.
Observed: DPPH scavenging

SMILES | assay | conditions | IC50
COc1ccc(-c2nn(-c3ccccc3)cc2/C=C(\C#N)c2nc3ccccc3[nH]2)cc1 | absorbance |  | 122 µM
CCOC(=O)c1nn(-c2ccccc2)c2nc3nc(-c4ccccc4)cc(-c4ccc5ccccc5n4)c3c(=O)n12 | absorbance | 30 min | 138 µM
Sc1nnc(-c2cc(Cl)ccc2Cl)o1 |  |  | 83.6 µM
CCCCn1cc(C(=O)O)c(=O)c2cc(F)c(Nc3cccc(OC)c3)c([N+](=O)[O-])c21 | absorbance | 30 min | 4090 µM
CCCCSc1nnc(-c2cc(Cl)ccc2Cl)o1 |  |  | 64.2 µM
O=c1c(O[C@@H]2O[C@H](CO)[C@@H](O)[C@H](O)[C@H]2O[C@@H]2O[C@H](CO)[C@@H](O)[C@H](O)[C@H]2O)c(-c2ccc(O)cc2)oc2cc(O)cc(O)c12 | absorbance |  | 195 µM
CC(=O)C1=C(C)NC(=O)NC1c1ccc(Cl)cc1 (centres unmarked) |  |  | 40.7 µM
O=C(O[C@@H]1Cc2c(O)cc(O)cc2O[C@@H]1c1cc(O)c(O)c(O)c1)c1cc(O)c(O)c(O)c1 | absorbance | 1 h | 7.1 µM
COc1ccc(NCc2cc(=O)c(O)c[nH]2)cc1 | absorbance | 30 min | 21.4 µg/mL
C=C(CO)C(=O)O[C@H]1CC(=C)[C@@H]2C[C@H](O)[C@](O)(CCl)[C@@H]2[C@H]2OC(=O)C(=C)C12 (some centres unmarked) | absorbance |  | ~121 µg/mL
CC(=O)C1=C(C)NC(=O)NC1c1cccc(Cl)c1 (centres unmarked) |  |  | 273 µM
C[C@@H]1O[C@@H](OC(=O)/C=C/c2ccc(O)cc2)[C@H](OC(=O)/C=C/c2ccc(O)cc2)[C@H](O)[C@H]1O |  | 30 min | 20.4 µg/mL
c1ccc(-n2c(-c3ccco3)nc3ccccc32)cc1 | absorbance |  | 1.61 µM
COc1cc(CN2CCN(c3ccc(Cl)cc3)CC2)c2cc3[n+](cc2c1O)CCc1cc2c(cc1-3)OCO2 | absorbance | 30 min | 12.2 µg/mL
Cc1ccc(-c2nn(-c3ccccc3)cc2/C=C(\C#N)c2nc3ccccc3[nH]2)cc1 | absorbance |  | 98.4 µM
CCCCn1cc(C(=O)O)c(=O)c2cc(F)c(Nc3cccc(OC)c3)c(N)c21 | absorbance | 30 min | 3.61 µM
Oc1c(Cl)cc(Cl)c2cccnc12 | absorbance | 30 min | 336 µM
CC(C)(C)c1ccc(-c2nnc(S)o2)cc1 |  |  | 56.9 µM
N#C/C(=C\c1cn(-c2ccccc2)nc1-c1ccc(Cl)cc1Cl)c1nc2ccccc2[nH]1 | absorbance |  | 249 µM
O=[N+]([O-])c1ccc(Cl)c(-c2nnc(S)o2)c1 |  |  | 54.1 µM
Cc1ccc(-c2nc3cc(C)c(C)cc3[nH]2)o1 | absorbance |  | 1.54 µM

SMILES | assay | conditions | IC50
CC(=O)C1=C(C)NC(=O)NC1c1cccc(C)c1 (centres unmarked) |  |  | 134 µM
N#C/C(=C\c1cn(-c2ccccc2)nc1-c1cccc(Br)c1)c1nc2ccccc2[nH]1 | absorbance |  | 96 µM
CCCCSc1nnc(-c2ccccc2)o1 |  |  | 62.1 µM
CCCCn1cc(C(=O)O)c(=O)c2cc(F)c(Nc3ccccc3OC)c(N)c21 | absorbance | 30 min | 37.7 µM
CCCCSc1nnc(-c2ccc(N)cc2)o1 |  |  | 30.7 µM
O=C1NC2=C(C(=O)N(c3ccc(Cl)cc3)C2)C(c2ccc(O)cc2)N1 (centres unmarked) | absorbance |  | 0.61 µg/mL
COc1cc(CN2CCN(c3ccc(C(F)(F)F)cc3)CC2)c2cc3[n+](cc2c1O)CCc1cc2c(cc1-3)OCO2 | absorbance | 30 min | 23.9 µg/mL
CC(=O)C1=C(C)NC(=O)NC1c1ccc(C)cc1 (centres unmarked) |  |  | 214 µM
N#C/C(=C\c1cn(-c2ccccc2)nc1-c1ccc([N+](=O)[O-])cc1)c1nc2ccccc2[nH]1 | absorbance |  | 94.6 µM
O=C(O)/C=C/c1ccc(O)cc1 |  |  | 69 µg/mL
COc1ccc(C2NC(=O)NC(C)=C2C(C)=O)cc1 (centres unmarked) |  |  | 53.1 µM
O=[N+]([O-])c1ccc2[nH]c(-c3ccco3)nc2c1 | absorbance |  | 1.59 µM
CCCCn1cc(C(=O)O)c(=O)c2cc(F)c(Nc3ccc(OC)cc3)c([N+](=O)[O-])c21 | absorbance | 30 min | 71.6 µM
Cc1ccc(-c2nc3cc(Cl)ccc3[nH]2)o1 | absorbance |  | 1.46 µM
COc1cccc(C2NC(=O)NC(C)=C2C(C)=O)c1 (centres unmarked) |  |  | 86.4 µM
COc1cc(CN2CCN(c3cccc(Cl)c3)CC2)c2cc3[n+](cc2c1O)CCc1cc2c(cc1-3)OCO2 | absorbance | 30 min | 21.3 µg/mL
CCCCn1cc(C(=O)O)c(=O)c2cc(F)c3c(nnn3-c3ccccc3OC)c21 | absorbance | 30 min | 7890 µM
Clc1ccc2[nH]c(-c3ccco3)nc2c1 | absorbance |  | 1.39 µM
O=C(O)[C@H]1O[C@@H](Oc2c(-c3ccc(O)c(O)c3)oc3cc(O)cc(O)c3c2=O)[C@H](O)[C@@H](O)[C@@H]1O |  |  | 47.2 µg/mL
COc1cc(CN2CCN(c3ccc(C)cc3)CC2)c2cc3[n+](cc2c1O)CCc1cc2c(cc1-3)OCO2 | absorbance | 30 min | 19.3 µg/mL

Some of these lines once more:
SMILES | assay | conditions | IC50
COc1ccc(NCc2cc(=O)c(O)c[nH]2)cc1 | absorbance | 30 min | 21.4 µg/mL
CC(=O)C1=C(C)NC(=O)NC1c1cccc(Cl)c1 (centres unmarked) |  |  | 273 µM
CCOC(=O)c1nn(-c2ccccc2)c2nc3nc(-c4ccccc4)cc(-c4ccc5ccccc5n4)c3c(=O)n12 | absorbance | 30 min | 138 µM
